Assay results collected from several papers.
Lines come from different studies, so protocols differ.

SMILES | sample | pH | notes | with | emission maximum [nm]
CCCCN1C(=O)c2cccc3c(NCCCCCCN4CCOCC4)ccc(c23)C1=O | toluene |  |  |  | 502
Nc1nc(-n2nnc3c2CCC2C(CO)C2CC3)nc2c1ncn2C1OC(CO)C(O)C1O (mixture of isomers) | methanol |  |  |  | 395
COc1ccc2cc(-c3ccc(-c4ccc(C)cn4)nc3)oc2c1 | aqueous HEPES buffer | pH 7.4 | zinc(II) complex |  | 524
NCCC(=O)N1Cc2ccccc2-c2c(nnn2-c2nc(N)c3ncn(C4OC(CO)C(O)C4O)c3n2)-c2ccccc21 (mixture of isomers) | DMSO |  |  |  | 422
COc1cc(OC)cc(C2=C3C(C)=C(I)C(C)=[N+]3[B-](F)(F)n3c(/C=C/c4c[nH]c5ccccc45)c(I)c(C)c32)c1 | THF |  |  |  | 668
CCn1cc(/C=C/c2sc3ccccc3[n+]2CC)c2ccccc21 | MeOH |  |  | excitation 488 nm | 540
COc1cc(OC)cc(C2=C3C(C)=C(I)C(C)=[N+]3[B-](F)(F)n3c(C)c(I)c(C)c32)c1 | dichloromethane |  |  |  | 549
Nc1ncnc2c1nc(-n1nnc3c1CCC1C(CO)C1CC3)n2C1CC(O)C(CO)O1 (mixture of isomers) | DMSO |  |  |  | 392
COCCOCCOCCOc1ccc(/C=C/c2c(I)c(C)c3n2[B-](F)(F)[N+]2=C(C)C(I)=C(C)C2=C3c2cc(OC)cc(OC)c2)cc1 | THF |  |  |  | 612
COc1ccc(/C=C/c2ccc(-c3ccc(C)cn3)nc2)cc1 | acetonitrile |  | zinc-free ligand |  | 431

For quick reference, copied from above:
SMILES | sample | pH | notes | with | emission maximum [nm]
CCn1cc(/C=C/c2sc3ccccc3[n+]2CC)c2ccccc21 | MeOH |  |  | excitation 488 nm | 540
